Values quoted from earlier work that unrelated publications cite.
Each line is one published result; not all experiments were run side by side. “And” joins repeats or separate records; there may be more than shown. Numbers after ± are the reported error.

CCCCCn1cc(C(=O)c2ccc3c(c2)CC(C)(C)C3)c2ccccc21 has a selectivity ratio of 7.9 (cannabinoid receptors; baseline: Ki CB1 over Ki CB2).
CC1=C(C)C(=O)OC(C(C)(O)C2(O)CCC3(O)C4CC5OC56CC=CC(=O)C6(C)C4CCC32C)C1 (stereo not drawn) gave an IC50 of 3910 nM (MCF7; cell growth).
For O=C1c2ccccc2C(=O)N1c1ccc(S(=O)(=O)Nc2nccs2)cc1, the MIC was 10 µg/mL (Mycobacterium tuberculosis; H37Rv).
CCCCCc1cc(O)c2c(c1)OC(C)(C)C1CCC(C)=CC21 (stereo not drawn): “intraocular pressure decrease” roughly 6 mmHg (rat with ocular hypertension; 5 mg/kg).
The IC50 of CCc1ccc(Oc2ccccc2)c(O)c1 is reported as 2000 ± 700 nM (InhA; inhibitor).
With CCOCC1C(c2ccc(Cl)c(Cl)c2)CC2CCC1N2C (stereo not drawn) the IC50 was 6.5 nM (dopamine transporter; inhibitor).
The IC50 of CCCCCCCC(=O)NCC(=O)N[C@@H](C)C(=O)N[C@@H](CC(C)C)C(=O)N[C@](C)(CC)C(=O)N[C@@H](C)C(=O)N[C@H](C(=O)N[C@H](CO)CC(C)C)[C@@H](C)CC is reported as 7000 nM (LS180; cell growth, MTT).
With CCCC/C=C/C(=O)N[C@@H](Cc1cc(F)cc(F)c1)C(=O)N[C@@H](COC(=O)[C@@H]1CCCN1C(C)=O)C(=O)OC the EC50 was roughly 6 µM (Bacillus subtilis ClpP; peptidase activity, activator).
With CC1(C)N=C(N)N=C(N)N1c1cccc(C(F)(F)F)c1 the EC50 was roughly 0.016 µM (influenza B virus; viral replication).
With CCC1(CC)C2CC3CC(C2)CC1(NC)C3 the EC50 was 4 µM (Influenza A virus; viral replication; A/PR/8/34 H1N1).
O=C(N[C@@H]1CC[C@@]2(O)[C@H]3Cc4ccc(O)c5c4[C@@]2(CCN3CC2CC2)[C@H]1O5)c1cccc2ccoc12 gave an AD50 of 0.18 mg/kg (anti-analgesic effect; Swiss Webster mice).
For CNC1C(O)C(NC)C2OC3(O)C(OC(C)C[C@H]3NC(=O)Cc3cscn3)OC2C1O.Cl.Cl (stereo partly drawn), the post-antibiotic effect was 23 to 27 h and 27 h (Mycobacterium bovis; BCG; concentration not given).
With CCCCCc1cc(O)c2c(c1)OC(C)(C)[C@@H]1CCC(C)=C[C@@H]21 the inhibitory concentration was less than 1 µM (serotonin transporter).
CC1=C(C)C(=O)OC(C(C)(O)C2(O)CCC3(O)C4CC5OC56C(O)C=CC(=O)C6(C)C4CCC32C)C1 (stereo not drawn) gave an IC50 of 2200 nM (T47D; cell growth).
The MIC of CC[C@H](C)[C@H](NC(=O)[C@H](CCCCN)NC(=O)[C@H](CCCCN)NC(=O)[C@H](C)NC(=O)[C@@H](NC(=O)[C@H](C)NC(=O)[C@H](CC(C)C)NC(=O)[C@H](CC(C)C)NC(=O)[C@H](C)NC(=O)[C@H](CCCCN)NC(=O)[C@H](CC(C)C)NC(=O)[C@H](CC(N)=O)NC(=O)[C@@H](N)CC(C)C)C(C)C)C(=O)N[C@@H](CC(C)C)C(N)=O is reported as 500 µM (Staphylococcus aureus; ATCC 12600).
